Experimental data gathered from unrelated publications.
Each numbered part is a random draw from the data of one study; scales do not carry over between parts.

Study 1
Target: Interferon regulatory factor 3, full length, phosphomimetic (IRF3, Homo sapiens, UniProt Q14653, residues 1-427, S386D/S396D/S398D/S402D/T404D/S405D)
Technique: protein-binding microarray
Form: double-stranded DNA, one strand shown
Sample: in vitro
Tested at: 2540 nM top
Notes: 60-bp whole probe
With: salmon DNA 0.4 mg/ml
Relative to: random background probes
Reading: higher = stronger binding
All sequences stand within: GCCTAGCAC … GTCTTGATTCGCTTGACGCTGCTG
Target sequence (chain): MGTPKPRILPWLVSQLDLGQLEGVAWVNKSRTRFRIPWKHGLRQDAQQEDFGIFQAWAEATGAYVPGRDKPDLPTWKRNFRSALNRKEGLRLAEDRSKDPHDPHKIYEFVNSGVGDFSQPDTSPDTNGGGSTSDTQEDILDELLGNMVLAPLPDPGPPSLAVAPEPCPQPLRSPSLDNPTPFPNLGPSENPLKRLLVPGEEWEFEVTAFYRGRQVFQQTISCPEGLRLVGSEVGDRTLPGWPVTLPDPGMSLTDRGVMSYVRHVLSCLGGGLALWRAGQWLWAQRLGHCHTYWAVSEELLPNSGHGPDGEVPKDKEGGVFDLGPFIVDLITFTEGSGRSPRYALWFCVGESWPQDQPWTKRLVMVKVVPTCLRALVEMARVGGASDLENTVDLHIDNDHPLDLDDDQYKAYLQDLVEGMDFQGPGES
Strand | fitted relative affinity [z-score]
GACGAACTGGGTTTCGGGACGTGCTAG | 1.56
TTAGGTATCGGGACTGGCTTAGTGCTA | 1.25
GACGGGATCCTACTGCTGACGTGCTAG | 0.785
CCAGTTCTGGGAAATATTTACGTGCTA | 0.564
GACGGACTGGACACTGGAGACGTGCTA | -0.603
GACGGACTCGGTCTCGGGACGTGCTAG | 0.00507
CTATATTTGCTTCAGGTTTAGTGCTAG | 0.488
TTAGAACTGGGGTTTCGATCAGTGCTA | 0.248
TTAGATATCCGGTATCGATTAGTGCTA | 1.18
TTAGGACTGGACCCTGGGTTAGTGCTA | -0.809

Study 2
Target: Histone acetyltransferase KAT6A, both winged helices, GST fusion (KAT6A, Homo sapiens, UniProt Q92794, residues 1-181)
Technique: protein binding microarray
Form: double-stranded DNA, one strand shown
Sample: in vitro
Tested at: not given
Notes: 8-mer, flanks averaged, mean of 2 arrays, mostly near background
Relative to: not given
Reading: higher = stronger binding
Target sequence (chain): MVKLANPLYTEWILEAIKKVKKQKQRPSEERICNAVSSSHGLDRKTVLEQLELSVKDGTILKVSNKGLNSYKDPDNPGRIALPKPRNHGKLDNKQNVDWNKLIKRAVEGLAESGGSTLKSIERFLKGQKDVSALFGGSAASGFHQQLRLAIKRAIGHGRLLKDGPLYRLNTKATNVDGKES
Strand | E-score
AAACGTCA | 0.0628
GAATTTCC | 0.0102
TCAATGGA | -0.0713
ACTTGCCC | -0.196
ATATTTGG | -0.152
ACACACCG | 0.139

Study 3
Target: RNA binding protein fox-1 homolog 2, RRM domain, GST-SBP tag (RBFOX2, Homo sapiens, UniProt O43251-10, residues 100-194)
Technique: RNA Bind-n-Seq
Form: RNA
Sample: in vitro
Tested at: 365 nM
Notes: natural RNA segment, single round, ends assumed
Relative to: no-protein control
Reading: higher = stronger binding
Target sequence (chain): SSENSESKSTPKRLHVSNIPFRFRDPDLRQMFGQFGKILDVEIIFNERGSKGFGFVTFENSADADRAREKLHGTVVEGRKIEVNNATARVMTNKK
Strand | RBNS enrichment (R)
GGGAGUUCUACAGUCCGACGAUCUGCCCGGCCUGCCUUCUGGCCCCACGCCCACAGGCGUAGUCACAUCUUUGUACUGUACUCCCCUGUCUCACCUGGGGCAACCUCAGAGCCCCACUAAGCUGAAGGCCCCCUGGAAUUCUCGGGUGCCAA | 0.222
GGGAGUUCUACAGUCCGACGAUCCUUGUUUUUCUGAUGGCAAAUGGGAACUGUGACAAAGUGAAGUCCUUGUAAAGCGGUGAUACAACUUGUCAAAUAUUUAAUAAAGAAUUACGGAAGCUGGAACAUUUCCUUGGAAUUCUCGGGUGCCAA | 0.268
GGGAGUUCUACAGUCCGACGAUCCCUUUUCUUUGGGCUUGACACCUGUCUUGAAUAAGAGUGAUUAGAGCUGCAUAAUGUCCCUCUCUUGGCUAUUGACCAUGUGGUUCACGUACAAAACUCUGUAUAAGUUGUGGAAUUCUCGGGUGCCAA | 1.23
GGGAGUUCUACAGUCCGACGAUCUUUGGGGUCAGUGUUACGAGGUGGCCUGUGGAGGUCUUCCGGUCCUGUUGGGAUCAUUUGUGAAUACAUUCUUUGCUCCUCUUAAGUGCUUGUUUCCUAACCGUGCAGUGUGGAAUUCUCGGGUGCCAA | 1.48
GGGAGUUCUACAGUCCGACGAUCUAUAGUCAAGUGUAUUAUGUAAUCUCUAUUUAGAACAGUUUCCCAAAGGAAUGUGAUUGGAUUUACUGGUUGGUUAAUUUCUUGUGAAAUAUUGUCAUAAUAGAAGCACAUGGAAUUCUCGGGUGCCAA | 1.67
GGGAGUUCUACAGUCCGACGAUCAGCAAAGUCUUCUGUUGGCCUUUGGAACAGGAGAGUCCCCGGAAUCUAGGACCCUAGUCUUUGUACUUGAUGCCUUGUUUCCCCCCUUUUCUUCUUUAAAAUUGGGGACCUGGAAUUCUCGGGUGCCAA | 0.275
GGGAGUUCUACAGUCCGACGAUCUUCCAUUGACAUUUAGAGUGAAAUAUUUUAUGCCAAAAAAAAAAUCUCUUUUUUAAAAAAGGGGGUUUGACUAUUGUUGGCAUUCUUGUGGUUCCUUUAAAUGCCCUUACUGGAAUUCUCGGGUGCCAA | 0.495

Further values, each from its own experiment
Molecule | target | assay | system | setting | how to read | quantity | value
PhoQ, residues 284 288 289 292 302 303 SQSLSM | PhoP, residues 12 14 15 18 19 SFCSL (Escherichia coli, UniProt P23836) | Sort-seq, measured: YFP reporter | E. coli | PhoQ-PhoP variant library, with: 10 µM Mg2+ | relative to: high Mg2+ state, higher = stronger signaling | fold induction | 15.5
